Measured values of several laboratories.
Each numbered part is a random draw from the data of one study; scales do not carry over between parts.

Sample 1
Target: Histone acetyltransferase KAT6A, both winged helices, GST fusion (KAT6A, Homo sapiens, UniProt Q92794, residues 1-181)
Technique: protein binding microarray
Form: double-stranded DNA, one strand shown
Medium: in vitro
Tested at: not given
Setting: 8-mer, flanks averaged, mean of 2 arrays, mostly near background
Relative to: not given
Reading: higher = stronger binding
Target sequence (chain): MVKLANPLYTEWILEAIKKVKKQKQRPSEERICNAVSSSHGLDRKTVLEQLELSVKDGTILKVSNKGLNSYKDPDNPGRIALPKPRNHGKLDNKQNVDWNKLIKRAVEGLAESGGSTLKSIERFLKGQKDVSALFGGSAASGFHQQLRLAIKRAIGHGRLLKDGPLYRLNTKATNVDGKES
Sequence	E-score
CCCGCATC	0.0775
CTCAGTTC	-0.186
ACAATCGA	-0.197
CGGATGGA	0.123
TAAAGCGA	0.071
TGGGCCAA	-0.194
ACTGCGTG	0.0472
ATATGGGC	-0.0188
CTACACTA	-0.227
GGAATAGA	0.0138
AGAACGTA	0.0193
ATCCTACG	-0.13
CGTCCAGC	0.0503
ATCGCGAT	0.217
TCTTGTAA	-0.0592
ACCTATAG	-0.185
ACTGGGAC	-0.203
ACTGACTG	0.0272
GCGTGTCA	0.238

Sample 2
Target: PABPC1L2, full length, GST fusion (mouse, UniProt A0ABA7IW68)
Technique: RNAcompete
Form: RNA
Medium: in vitro
Tested at: 20 nM
Setting: 7-mer, probes averaged, single round
Relative to: mean of 7-mers
Reading: higher = stronger binding
Target sequence (chain): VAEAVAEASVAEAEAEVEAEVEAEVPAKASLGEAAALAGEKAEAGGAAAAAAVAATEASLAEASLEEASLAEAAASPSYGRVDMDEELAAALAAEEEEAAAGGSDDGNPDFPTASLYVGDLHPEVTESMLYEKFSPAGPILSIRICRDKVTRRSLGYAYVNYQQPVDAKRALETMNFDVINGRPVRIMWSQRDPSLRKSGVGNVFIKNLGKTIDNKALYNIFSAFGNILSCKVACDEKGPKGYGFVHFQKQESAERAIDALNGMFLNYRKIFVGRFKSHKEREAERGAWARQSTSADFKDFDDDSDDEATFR
Sequence	7-mer Z-score
AUGCCUG	-0.0573
CCCACCA	-0.295
GGGGCGA	0.606
AAGUCAC	0.0315
UAAGUGG	0.263
AACGAAG	0.387
UCCUUUU	-0.0989
ACAGAAC	0.158
UGGUGCG	-0.0156
GGGGCCC	-0.191
GCCGUUA	-0.248
CGGACAC	-0.0699
GCGAACU	-0.141
AAUGGAA	0.588
GAAGAGA	0.206
GCCAGAG	0.102
UGAUGUC	-0.264
UCCUCUA	-0.231
GGUAAGC	-0.0192
ACGGAUU	0.017
UGUAUCU	-0.257
CCACGCU	-0.237
AUAGGCA	0.311
GACGGAC	0.0642
GUACUCC	-0.222

Sample 3
Target: Ras GTPase-activating protein-binding protein 1, full length (G3BP1, Homo sapiens, UniProt Q13283)
Sequence of UniProt Q13283 (whole entry, looked up): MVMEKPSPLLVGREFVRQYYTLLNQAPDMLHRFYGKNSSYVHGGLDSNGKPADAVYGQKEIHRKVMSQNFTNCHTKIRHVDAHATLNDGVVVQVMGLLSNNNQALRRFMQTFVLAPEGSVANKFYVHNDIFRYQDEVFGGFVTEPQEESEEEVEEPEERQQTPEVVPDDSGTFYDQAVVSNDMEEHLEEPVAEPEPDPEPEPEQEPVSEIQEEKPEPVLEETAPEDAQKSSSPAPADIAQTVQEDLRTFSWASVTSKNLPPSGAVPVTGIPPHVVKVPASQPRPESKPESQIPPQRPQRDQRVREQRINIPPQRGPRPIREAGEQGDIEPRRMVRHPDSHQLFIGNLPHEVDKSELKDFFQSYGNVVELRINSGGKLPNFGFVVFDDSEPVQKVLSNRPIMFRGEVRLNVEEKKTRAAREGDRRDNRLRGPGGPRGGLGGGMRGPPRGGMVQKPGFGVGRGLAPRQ
Technique: RNA Bind-n-Seq
Form: RNA
Medium: in vitro
Tested at: 200 nM
Setting: whole 134-nt RNA, ends assumed
Added: 150 mM LiCl
Relative to: input library
Reading: higher = stronger binding
Library: 7-deaza-guanosine replaces G
All sequences stand within: GGGAGUUCUACAGUCCGACGAUC … UGGAAUUCUCGGGUGUCAAGG
Sequence	log2 enrichment
GCAGGAAGUAAAAACAAAUGGAAAUGCUUCGGAUAGUGGCAGGGGUGGAGGUUGCUAAGGAAAGGGUGGGAUGGGAGUGGGUAAAGAGUU	-0.116
GUCCUGUGCUACACAUCGUAUGUACCGAAUCGGGGUGGGGAAAAAGGGGAAAAAGGGGAAAGUAUUAUGUUACGCCGUUCGGAUCUGCAC	0.489
AAGUCCUGUGCUACACAUCGUAUGUACCGAAUCGGGCCCGGGGCCCGGGGCCCGGGAAAGUAUUAUGUUACGCCGUUCGGAUCUGCACUU	-1.27
CCUGCUUUUGGGGGUGACCGCCGGAGCGCGGCGUGAGCCCUCCCCCUUGGGAUCCCGCAGCUGACCAGUCGCGCUGACGGACAGACAGAC	-1.98
ACCAUGCAGGUGGGCAUCUUUGGGAAGUGGGGCAAGGGGGGGAUAGGGAGGGGGGUAACACUUUGAAAACAGGUGGUCCCAGGUCGUUUC	-0.103
UCAAGUCCUGUGCUACACAUCGUAUGUACCGAAUCGGGGAGGGGUGGGGAGGGGAAAGUAUUAUGUUACGCCGUUCGGAUCUGCACUUCC	0.234
UUCACAGGUAAGUGGGGCAGUGUCCGGACCAGUGGACGCAGCAGUGGCCUUGGCACCGAUGUGGGCUCCCGGCUAGCUGGCAGAGACGCG	0.222
CAAGUCCUGUGCUACACAUCGUAUGUACCGAAUCGGGCCCGGGCCCGGCCCGGGGAAAGUAUUAUGUUACGCCGUUCGGAUCUGCACUUC	-1.16
GUCCUGUGCUACACAUCGUAUGUACCGAAUCGGGGUUUGGGGUUUUUUUGGGGUGGGGAAAGUAUUAUGUUACGCCGUUCGGAUCUGCAC	-0.19
CAAGUCCUGUGCUACACAUCGUAUGUACCGAAUCGGAAAAAAAGGUUUUUGGUGGAAAGUAUUAUGUUACGCCGUUCGGAUCUGCACUUC	-1.33
AGUCCUGUGCUACACAUCGUAUGUACCGAAUCGGGGUUUUGGGGUUUUGGGUUUUGGGAAAGUAUUAUGUUACGCCGUUCGGAUCUGCAC	0.11

Sample 4
Target: Phosphate system positive regulatory protein PHO4, full length, GST-tagged (PHO4, Saccharomyces cerevisiae, UniProt P07270, residues 1-312)
Sequence of UniProt P07270 (whole entry, looked up): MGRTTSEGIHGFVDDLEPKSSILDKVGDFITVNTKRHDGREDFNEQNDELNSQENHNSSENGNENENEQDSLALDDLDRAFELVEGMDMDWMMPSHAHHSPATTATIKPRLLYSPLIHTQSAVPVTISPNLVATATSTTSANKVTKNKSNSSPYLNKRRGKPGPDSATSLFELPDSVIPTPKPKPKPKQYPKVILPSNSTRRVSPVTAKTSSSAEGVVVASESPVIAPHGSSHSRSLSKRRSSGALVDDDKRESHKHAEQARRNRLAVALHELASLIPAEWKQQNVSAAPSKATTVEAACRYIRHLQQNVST
Technique: competition protein-binding microarray
Form: double-stranded DNA, one strand shown
Medium: in vitro
Tested at: 2 µM
Setting: whole 60-bp probe, lowest competitor level
Added: Cbf1 competitor, 0.05 µM
Reading: higher = stronger binding
All sequences stand within: … GTCTTGATTCGCTTGACGCTGCTG
Sequence	fluorescence intensity
CTGGAGGGCGTAACGGCCGTGATGGGGCCTGAGCTC	2990 a.u.
AACATCATAAATTAGCACGCAAACGGTAAAGAACAA	7630 a.u.
CGCAGGGAGCCTGGCCACATGGGAGGGGTGTGGTCC	8160 a.u.
GACTTATCGTCTGAAGTCGTGGGACAAATGGATGCC	7640 a.u.
CTAACGAAGGTTTGTGTCGTGGGTGACAAGCCAAGT	6140 a.u.
CATTAAGTGCTTCCTCACGTGCCGATCTACTTCTCT	14700 a.u.
TGCGCAACAACTTGGTCAGTGGGTGTATGTCTAGAA	4290 a.u.
CGTCCTAGCGATTGAGTAGTGGGTGCCATGAGGAAG	6420 a.u.
TAAGTGAGGTTCCATCACGGGGCCACCGTTCTCATT	6390 a.u.
CTTTCCCGATCTTGCGCCGTGGGTGTAGCACATTTG	5510 a.u.
AAAGCGGTAATTTGTTCTGTGGGTGCAGATATCTAT	4070 a.u.
CGGGCTGATAACTAGATGGTGTGTTCGGGCAGTATA	4070 a.u.
CGTTGTCGATTTTCACACGTGCAAACAATGAGGTTG	16400 a.u.
CATACCCAACCTTGTCACTATACTTAAGATATTTGT	3400 a.u.
TGTCGAGGTATCGGCCGCGTGGAACTACCGGGAATT	7400 a.u.
CAAATGATTTATACCCACGCAAAATGACATTGCAAT	6180 a.u.
CCTGCAGGGGTTCCACGCGTGCCAGGTAGCGGTTGA	8780 a.u.

Sample 5
Target: RNA binding protein fox-1 homolog 2, RRM domain, GST-SBP tag (RBFOX2, Homo sapiens, UniProt O43251-10, residues 100-194)
Technique: RNA Bind-n-Seq
Form: RNA
Medium: in vitro
Tested at: 365 nM
Setting: natural RNA segment, single round, ends assumed
Relative to: no-protein control
Reading: higher = stronger binding
All sequences stand within: GGGAGUUCUACAGUCCGACGAUC … UGGAAUUCUCGGGUGCCAA
Construct (chain): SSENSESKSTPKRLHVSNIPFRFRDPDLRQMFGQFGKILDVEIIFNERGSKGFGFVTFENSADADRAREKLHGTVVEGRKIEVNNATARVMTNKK
Sequence	RBNS enrichment (R)
UAAAUUUUAUUUGGUUUGUACUCAAUUCAAUUUCAAAAUUGCUAAAAUGUGUUUGAGCUUUAGACUAUAACAUUUGUUGUAAUAAUUGCUAGGUUGAAGUUCACCAUGUU	0.558
AUUCACCAGAGUUGGAAUUGAGAAAUUUUGGGCUUUCCAAAAUUAACCUUUAAACUUAAAAUUGAUUACAUUGAGCCUAUUCAGAAAAAAAAUUAUAUAGGUUCUGAUGA	0.662
CUGCUUUCCUAUAAUUUCUACCUAUUGGGCCUUGUUCUGUUCUCUGGAACUAAACAGAACAACCAUUUACCCCUCCUUUUCAAACUAGAGAAUAAAGAUUUGGUUUUAGA	0.564
UGUUUUCAGUUUUCAUUUCGACAAGCACUGUAAUUAUAGCUGUUAGAAUAAAGUCUCUUAACUAUUUAUGGGCUUGUGUGUCAGUGCCACCACUGCCAGGCUUCUUCCUG	0.364
AUAUUCUUCAUCUCAUCCUGUGGGAUUCUGCAAUCAUAAAACACAGGAAAGGGGAAUUCUGUGAUGGCAAAUGAAAAAAAUGUUAACAUUUGGUAGACAUGUGCUUUGAC	0.291
UUUCCCUUCCCUUUGACUGUGUGGCCUUUCCCACACAGUUACUAACAGAUAUUUCUGAGUGGUGGAAUCAGGUUUUCUAUGUUCUGCUUUAAAGCCUGGAGUCUGUUAGA	0.243
GGCACUGGGCCUGUUGCCUGCCAGUCAUGGACACCCAUGUGAAAAAUCCUGAUUUCCAGCUCAUGGAGCCAGCGUUUGAACCUUGAACAAAUAAAUUUCAUUUAUGAUUU	0.438
GGAUCUUUGCCUCUCAUUAAAAGUCAUGGAAAAUAUACACAUUUAAGGUGAAUAGACACAUUAAGGUGGCAAAUGAUCUACUUUUUCAAGUAAUAUUGCUCCUUUAAAAG	0.472
UAGAAGCUGCAAACCUCUUCUCAGCCUCCUUCAGGCACCUCCUGUUUUCAUAAGCACCAUGAAGAAUGGUGUUUCCUAAAUGAAAAGUUCAGAUACUGCUGGUAAAGAAA	0.284
UCCUGAGGCUGCCCCAAGGCCUACGGGUUAAAGCCAAUAGCUGCUCACAUGCAACAACGGAAGGAGAUUCAAGAGUCUGCCAUCCCUUAGCAGCCCCUAAGUGGGCCUCU	0.231
UUUUUACAACCAUCCGGUGUGGUUUGGAGGAUUUGUUUUUUUUUUUUCCCAACAGAAAAGAACAGCCAUUAGAAGAAGGCUCCCAUUUUCUGAUGUUCCGCCCCACUGUG	0.313
GGUUCUCACGGGUUCAAUCUUUUGUGUUUAGAGAGGCCACGGUUCAGACAAUGGUAUAUAUUUUUGUUAUCAGGUGCAUGUCUGUCUGAUUUCUUUUUUUUUCCUGUUGG	23

Some of these lines once more (sample 4):
Sequence	fluorescence intensity
CGTCCTAGCGATTGAGTAGTGGGTGCCATGAGGAAG	6420 a.u.
CATTAAGTGCTTCCTCACGTGCCGATCTACTTCTCT	14700 a.u.
CTTTCCCGATCTTGCGCCGTGGGTGTAGCACATTTG	5510 a.u.
CGTTGTCGATTTTCACACGTGCAAACAATGAGGTTG	16400 a.u.
GACTTATCGTCTGAAGTCGTGGGACAAATGGATGCC	7640 a.u.
